{"data": "Measured values pooled from the literature", "cell line": "OVCAR-5", "note": "Lines come from different studies, so protocols differ."}
{"Compound": "CN(C)CCN1CCN(c2ccc3nc(-c4ccc5nc(-c6ccc(C(F)(F)F)cc6)[nH]c5c4)[nH]c3c2)CC1", "test": "SRB", "conditions": "10 µM, 48 h", "endpoint": "growth percent", "value": "114%"}
{"Compound": "Cc1nc2c(F)cc(-c3nc(Nc4ccc(CNC(=O)CCCC(=O)NO)cc4)ncc3F)cc2n1C(C)C", "test": "cell growth or viability, CCK-8", "conditions": "0.3 µM, 48 h", "endpoint": "inhibition", "value": "87.5%"}
{"Compound": "C=Cc1c(C)c2cc3nc(c(CC(=O)OCCOCCOCCOC)c4[nH]c(cc5nc(cc1[nH]2)C(C)=C5CC)c(C)c4C(=O)O)[C@@H](CCC(=O)OCCOCCOCCOC)[C@@H]3C", "test": "MTT", "conditions": "0.1 µM, together with: D-mannitol 30 mM", "how to read": "baseline: compound alone", "endpoint": "reduction of phototoxicity", "value": "~4%"}
{"Compound": "C1=[N+]2CCCC[N+]3=Cc4ccc5[n]4[Au-]23[n]2c1ccc2-c1nc2ccccc2nc1-5.F[P-](F)(F)(F)(F)F", "test": "NCI60 five-dose screen", "endpoint": "TGI", "value": "4.35 -log M"}
{"Compound": "O=C(Nc1nnc2c1c(-c1ccc(Cl)cc1)nc1sc(=Cc3ccco3)c(=O)n12)c1ccccc1 (mixture of isomers)", "test": "SRB", "conditions": "10 µM, NCI60 single-dose screen", "how to read": "baseline: untreated", "endpoint": "cell growth", "value": "66.3%"}
{"Compound": "Cc1nc2c(F)cc(-c3nc(Nc4ccc(C(=O)NCCCCCC(=O)NO)cc4)ncc3F)cc2n1C(C)C", "test": "cell growth or viability, CCK-8", "conditions": "0.3 µM, 48 h", "endpoint": "inhibition", "value": "104%"}
{"Compound": "Cn1ncc(-c2ccc3c(=O)[nH]nc(CN)c3c2)c1-c1c(F)c(Cl)cc(OC2CC2)c1C#N", "test": "cell viability, inhibitor, CellTiter-Glo", "conditions": "120 h, baseline-subtracted", "endpoint": "IC50", "value": "180 nM"}
{"Compound": "Cc1ccc([N+](=O)[O-])cc1S(=O)(=O)N(C)/N=C/c1cnc2ccc(Br)cn12", "test": "cell viability, MTS", "endpoint": "IC50", "value": "40 nM"}
{"Compound": "C=Cc1c(C)c2cc3nc(c(CC(=O)OCCOCCOCCOC)c4[nH]c(cc5nc(cc1[nH]2)C(C)=C5CC)c(C)c4C(=O)OCCOCCOCCOC)[C@@H](CCC(=O)OCCOCCOCCOC)[C@@H]3C", "test": "MTT", "conditions": "0.1 µM, together with: sodium azide 2 mM", "how to read": "baseline: compound alone", "endpoint": "reduction of phototoxicity", "value": "10%"}
{"Compound": "CCOc1cncc(-c2ccc(NC(=O)C3(c4ccnc(NS(=O)(=O)C5CC5)n4)CCOCC3)nc2)n1", "test": "cell proliferation, CellTiter-Glo", "conditions": "72 h", "endpoint": "IC50", "value": "35 nM"}
{"note": "Excerpt of the above:"}
{"Compound": "O=C(Nc1nnc2c1c(-c1ccc(Cl)cc1)nc1sc(=Cc3ccco3)c(=O)n12)c1ccccc1 (mixture of isomers)", "test": "SRB", "conditions": "10 µM, NCI60 single-dose screen", "how to read": "baseline: untreated", "endpoint": "cell growth", "value": "66.3%"}
